Measured values gathered from unrelated publications.
Parts stem from different laboratories: compare values within a part only. Several values in a cell are separate wells, animals, samples, runs or records.
Sequence of UniProt P47898 (whole entry, looked up): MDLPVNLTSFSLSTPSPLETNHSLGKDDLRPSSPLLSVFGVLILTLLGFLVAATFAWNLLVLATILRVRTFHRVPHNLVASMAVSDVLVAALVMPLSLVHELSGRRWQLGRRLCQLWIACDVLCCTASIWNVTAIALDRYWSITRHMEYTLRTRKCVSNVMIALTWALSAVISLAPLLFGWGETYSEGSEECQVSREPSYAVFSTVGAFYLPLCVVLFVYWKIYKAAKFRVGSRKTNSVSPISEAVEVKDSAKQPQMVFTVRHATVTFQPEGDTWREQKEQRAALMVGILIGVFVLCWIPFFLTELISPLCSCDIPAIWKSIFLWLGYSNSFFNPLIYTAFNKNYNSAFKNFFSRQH

Set 1
Cell line: A-375
Concentration: 100 µM
Time: 36 h
`CCOC(=O)C(C)(C)Oc1ccc(Cl)cc1` gave a viability of 84.4%.
For `NC(=O)c1cn(Cc2c(F)cccc2F)nn1`, the viability was 106%.
`CC[C@H]1OC(=O)[C@H](C)[C@@H](O[C@H]2C[C@@](C)(OC)[C@@H](O)[C@H](C)O2)[C@H](C)[C@@H](O[C@@H]2O[C@H](C)C[C@H](N(C)C)[C@H]2O)[C@](C)(O)C[C@@H](C)C(=O)[C@H](C)[C@@H](O)[C@]1(C)O` gave a viability of 72.1%.

Other studies, line by line
For `CCOC(=O)[C@@H]1CSCC(=O)N[C@@H](CC)C(=O)N(C)[C@@H](C)C(=O)N[C@H](CC(C)C)C(=O)N2CCC[C@@H]2C(=O)N(CC)CC(=O)N[C@@H](CC(C)C)C(=O)N(C)[C@@H](C)C(=O)N[C@@H](CC(C)C)C(=O)N1C`, the logD was -0.23 (hydrocarbon/water).
The remaining activity of `c1ccc2c(-c3nn4c(-c5ccncc5)nnc4s3)c[nH]c2c1` is reported as 158% and 147% and 143% and 122% and 106% and 127% and 159% (α-galactosidase (human, wild type); healthy dermal fibroblasts; 0.5 µM, without ISRIB; relative to: DMSO).
`C[C@H](c1ccnc(Nc2nc3ccc(-c4cc(N(C)C)ncn4)cc3[nH]2)c1)N1CCN(C(=O)CC(F)(F)F)CC1` gave an inhibition of 11.9% (HTR5A (Homo sapiens, UniProt P47898); ligand displacement; 10 µM).
The remaining compound of `CCc1cc(Nc2nc(Cl)ncc2OC)n[nH]1` is reported as 38.4% (human, microsomes or S9; 2 µM, 0.5 h).
`O=C(COc1ccccc1P(=O)(O)O)NCC(F)(F)c1cccc(F)c1` gave a mRNA level of 0.938 and 1.36 and 0.664 and 1.12 (human islets; qPCR, measured: USP8; concentration not given, unit not given, with: high glucose (20 mM); relative to: low glucose control).

For quick reference, copied from above (other studies, line by line):
For `CCOC(=O)[C@@H]1CSCC(=O)N[C@@H](CC)C(=O)N(C)[C@@H](C)C(=O)N[C@H](CC(C)C)C(=O)N2CCC[C@@H]2C(=O)N(CC)CC(=O)N[C@@H](CC(C)C)C(=O)N(C)[C@@H](C)C(=O)N[C@@H](CC(C)C)C(=O)N1C`, the logD was -0.23 (hydrocarbon/water).
